Assay results of several laboratories.
Lines come from different studies, so protocols differ. Values joined by “and” are separate records of one study, mostly repeats; a detail may differ. Numbers after ± are the reported error.

CC(C)(O)c1ncc([S@](N)(=O)=NC(=O)Nc2c3c(cc4c2CCC4)CCC3)s1
subjects with TEAEs (refers to: general, administration-site conditions; healthy human; oral, 100 mg, all formulations pooled): 50%

CC[C@H](C)[C@H](NC(=O)[C@@H](NC(=O)[C@H](CCCCN)NC(=O)[C@@H](NC(=O)[C@@H]1CCCN1[C@@H]1CN(C(=O)[C@@H](NC(=O)[C@@H](NC(=O)[C@@H](NC(=O)[C@@H](NC(=O)[C@@H](NC(=O)[C@@H](N)CCCCN)C(C)C)C(C)C)C(C)C)[C@@H](C)CC)[C@@H](C)O)CC[C@H]1NS(=O)(=O)c1ccc(C)cc1)[C@@H](C)O)C(C)C)C(=O)N[C@@H](CC(C)C)C(=O)N[C@@H](Cc1c[nH]cn1)C(N)=O
random coil content (CD spectroscopy; 20 mM phosphate buffer; 125 µM, 20 °C): 58.5%

COc1ccc(CNc2nc([C@H]3CC[C@H](C(=O)O)CC3)nc3sc4ccccc4c23)cc1Cl
logP: 6.66

COc1cc(OCCN2CCOCC2)cnc1-c1nc2cc(OC(F)(F)F)ccc2[nH]1
CL/F (Balb/c mouse, female, plasma; oral gavage, 100 mg/kg): 2.57 mL/min

O=C([O-])CN1CCN(CC(=O)[O-])CCN(CC(=O)[O-])CC1.[44Sc+3]
tracer uptake (mouse, kidney; intravenous, 1 h): 1.54 %ID/g

Cc1nn(-c2nc3c(F)cc(F)cc3s2)c(O)c1C(c1ccc(C(F)(F)F)cc1)c1c(C)nn(-c2nc3c(F)cc(F)cc3s2)c1O
AUC(0-inf) observed (ICR mouse, plasma; intraperitoneal, 10 mg/kg): 31800 ng·h/mL and 30300 ng·h/mL and 27600 ng·h/mL

CCCCN1C(=O)c2cccc3c(NCCCN4CCOCC4)ccc(c23)C1=O
fluorescence quantum yield (DMF): 0.34

CN(Cc1ccccc1)C(=O)CN1CCN(CC(=O)[O-])CCN(CC(=O)N(C)Cc2ccccc2)CC1.[18F-].[Sc+3]
tracer uptake (mouse, stomach; intravenous, 1 h): 0.06 %ID/g

CCc1cnc(NC(=O)c2cc(S(=O)(=O)N3CCOCC3)ccc2N(C)C2CCCC2)s1
Amylase (mouse, serum; 10 mg/kg, 3 doses): 698 IU/L

C/C(N)=N/C(=N\S(=O)(=O)c1ccc(C(F)(F)F)cc1)N1C[C@H](c2ccccc2)C(c2ccc(Cl)cc2)=N1
AUC(0-inf) (C57BL/6 mouse, plasma; intravenous, 10 mg/kg, observed value): 10300 ng·h/mL

N=C(N)NCCC[C@@H]1NC(=O)[C@H](CO)NC(=O)[C@@H](NC(=O)[C@H](CO)NC(=O)[C@H](CO)NC(=O)[C@H](Cc2c[nH]c3ccccc23)NC(=O)CNC(=O)[C@H](CO)NC(=O)[C@@H](N)Cc2c[nH]c3ccccc23)CSSC[C@@H](C(=O)NCC(=O)O)NC(=O)[C@H](CO)NC1=O
AUC(0-80 min) (patients, plasma; intravenous, 10 mg/kg, thrice weekly, geometric mean): 854 ng·h/mL

COc1cccc(OC)c1-c1cc(C(=O)NC2(C(=O)O)C3CC4CC(C3)CC2C4)nn1-c1ccc(C(=O)N(C)CCCN(C)C(=O)[C@H](CCCCNC(=O)[C@H](CC(C)C)NC(=O)C2OC2C(=O)O)NC(=O)CN2CCN(CC(=O)[O-])CCN(CC(=O)[O-])CCN(CC(=O)[O-])CC2)cc1C(C)C.[177Lu+3] (mixture of isomers)
tissue uptake (mouse, HT-29 xenograft, kidney; 4 h post injection): 9.9 %ID/g

CC(=O)N([O-])CCCCCNC(=O)CCC(=O)N([O-])CCCCCNC(=O)CCC(=O)N([O-])CCCCCN.[89Zr+4]
intact complex (radio-TLC; aqueous buffer; 3 d, pH 5, 37 °C, 89Zr-labelled complex, together with: DTPA 100-fold excess): 97.4 ± 0.9%

CC[C@H](C)[C@@H]1NC(=O)[C@H](Cc2ccc(O)cc2)NC(=O)CCCSC[C@@H](C(=O)N(CC(=O)N[C@@H](CC(C)C)C(=O)NCC(N)=O)Cc2ccc(F)cc2)NC(=O)[C@H](CC(N)=O)NC(=O)[C@H](CCC(N)=O)NC1=O
severe adverse events (human; intranasal, 100 µg single dose): 0%

Cc1cc(-c2ccc(C(=O)[C@@H]3CCCC[C@H]3C(=O)Nc3cnn4c3C(=O)NCC4)cc2)[nH]n1
cumulative recovery of radioactivity (human, faeces; oral, 200 mg, 0-144 h; baseline: dose): 72.5%

CC(C)n1ncc2c(C(=O)NC[C@@H](C)N)cc(C3CC3)nc21
concentration (female BALB/c mouse, plasma; intraperitoneal, 30 mg/kg, 30 min): 1360 ng/mL

COc1cccc(OC)c1-c1cc(C(=O)NC2(C(=O)O)C3CC4CC(C3)CC2C4)nn1-c1ccc(C(=O)N(C)CCCN(C)CCCN(C)C(=O)[C@H](CCCCNC(=O)[C@H](CC(C)C)NC(=O)C2OC2C(=O)O)NC(=O)CN2CCN(CC(=O)[O-])CCN(CC(=O)[O-])CCN(CC(=O)[O-])CC2)cc1C(C)C.[177Lu+3] (mixture of isomers)
renal retention (HT-29 xenograft mouse, kidney; 168 h; baseline: initial uptake): 31 ± 7%

COc1ccc(Nc2nc(Nc3ccc(OCCOCCOCC[18F])cc3)ncc2Br)cc1
uptake ratio (ICR mice, S180 tumour; intravenous, 370 kBq, 5 min; baseline: tumour over blood): 0.47

O=C1CCC(N2Cc3cc(C(=O)O)c(F)cc3C2=O)C(=O)N1 (stereo not drawn)
concentration (male CD-1 mouse, plasma; intravenous, 1 mg/kg, 15 min): 379 ng/mL

CN(Cc1ccccc1)C(=O)CN1CCN(CC(=O)[O-])CCN(CC(=O)[O-])CC1.[44Sc+3]
tracer uptake (mouse, kidney; intravenous, 1 h): 3.58 %ID/g

CC[C@H](C)/C=C/C=C/C=C/C(O)=C/C(=O)C(Cl)(Cl)Cl
time plasma level above threshold (C57BL/6 mice female, plasma; oral gavage, 25 mg/kg, threshold 1 µM): 15 min

COc1ccccc1/C=C/CNCC(O)COc1ccc(Nc2ccccc2)cc1 (racemic)
MRT(0-inf) (mouse, plasma; intraperitoneal, 10 mg/kg): 8.24 h

CCC(CC)CNC(=N)NC(=N)NCCCCCCNC(=N)NC(=N)NCC(CC)CC
scaled CLint (metabolic stability; rat, hepatocytes; 1 µM): 50.3 mL/min/kg

CCn1c(=O)c(-c2cc(NC(=O)Nc3ccccc3)c(F)cc2Br)cc2cnc(N)cc21
mid-term stability accuracy (human plasma; 150 ng/mL, 1 weeks, 4 °C, low QC): -1.73%

C=C(NC(=O)c1csc(-c2nc3c(cc2O)-c2nc(cs2)C(=O)NC(C(C)O)C(=O)NC(=C(C)OC)c2nc(cs2)C(=O)NC2c4nc(cs4)C(=O)NC(COC(=O)c4c5c6c(cccc6n4O)COC(=O)C(OC4CC(C)(O)C(N(C)C)C(C)O4)C2OC5)c2nc-3cs2)n1)C(N)=O (stereo not drawn)
Tmax (ICR mice, Streptococcus pneumoniae ATCC 49169 infected, immunocompromised, blood; intravenous, 2 mg/kg/day three times daily): 6.08 h

C[N+](C)(CCOCCOCCOCCOCCOCCOCCOCCNC(=S)Nc1ccc(CC2CN(CC(=O)[O-])CCN(CC(=O)[O-])CCN2CC(=O)[O-])cc1)C[c-]1cccc1.[64Cu+2].[Fe+2].c1cc[cH-]c1 (stereo not drawn)
large intestine uptake (nude mice, BxPC-3 xenograft; 8 h, radioligand only, no pretargeting): 1.8 ± 1.4 %ID/g

COc1cccc(OC)c1-c1cc(C(=O)NC2(C(=O)O)C3CC4CC(C3)CC2C4)nn1-c1ccc(C(=O)N(C)CCOCCOCCN(C)C(=O)[C@H](CCCCNC(=O)[C@H](CC(C)C)NC(=O)C2OC2C(=O)O)NC(=O)CN2CCN(CC(=O)[O-])CCN(CC(=O)[O-])CCN(CC(=O)[O-])CC2)cc1C(C)C.[177Lu+3] (mixture of isomers)
tissue uptake (mouse, HT-29 xenograft, heart; 168 h post injection): 0.15 %ID/g

O=C(Nc1cnccc1-c1ccc([18F])cc1)c1ccnc(NC(=O)C2CC2)c1
SUV (mice, transgenic, GSK-3β, early-stage, thalamus; intravenous, dose not given, 120 min): 0.03

CNC(=O)C1CCCN(C(=O)C2CC3CCC2N3C(=O)[C@@H]2C[C@@H](O)CN2C(=O)NCc2cccc(Cl)c2F)C1 (mixture of isomers)
half-life (metabolic stability; monkey, liver microsomes): 1.07 h

O=C([O-])CN1CCN(CC(=O)[O-])CCN(Cc2cccc(C(=O)[O-])n2)CC1.[44Sc+3]
tracer uptake (mouse, lung; intravenous, 1 h): 1.06 %ID/g

N#C[C@@H]1CCCN1C(=O)CNC(=O)c1ccnc2ccc(OCCCN3CCN(C(=O)CCc4ccc5c(c4)CN4CCN(Cc6cc(CCC(=O)O)ccc6O)CC(=O)[O][Al-]([18F])([O]C(=O)C4)[O]5)CC3)cc12 (stereo partly drawn)
tumour-to-organ ratio (BALB/c nude mice, U-87 MG tumour; 120 min post-injection; baseline: tumour over muscle): 15.5 ± 6.1

O=C(Nc1cnccc1-c1ccc([18F])nc1)c1ccnc(NC(=O)C2CC2)c1
SUV (FVB/NJ mice, both sexes, liver; intravenous, 40 min, median, P-gp inhibitor pretreatment, together with: tariquidar 15 mg/kg iv): 8.29

O=C([O-])CN1CCN(CC(=O)[O-])CCN(C(CO)C(O)CO)CCN(CC(=O)[O-])CC1.[Dy+3] (stereo not drawn)
lanthanide concentration (cynomolgus monkey, kidney cortex; dose not given, day 5): 29 ± 23 nmol/g

N#C[C@@H]1CC(F)(F)CN1C(=O)CNC(=O)c1ccnc2ccc(OCCCN3CCN(C(=O)CCc4ccc(O)c(CN5CCN6CC(=O)[O][Al-]([18F])([O]C(=O)C5)[O]c5ccc(CCC(=O)N7CCN(CCCOc8ccc9nccc(C(=O)NCC(=O)N%10CC(F)(F)C[C@H]%10C#N)c9c8)CC7)cc5C6)c4)CC3)cc12 (stereo partly drawn)
radiochemical purity (radio-TLC; CD-1 mice, plasma; intravenous, 60 min post-injection): 86 ± 7.2%

CN([O-])C(=O)CN1CCNCCN(CC(=O)N(C)[O-])CC1.[89Zr+4]
intact complex (radio-TLC; human serum; 7 days, run 2): 100%

COc1ccc2c(c1)CCn1c[n+]3c(c1-2)-c1ccc(OC)cc1CC3
red cell distribution width (female NSG mice, blood; 6 mg/kg, day 20, 5 days per week): 15 ± 0.36%

CN(Cc1ccccc1)C(=O)CN1CCN(CC(=O)[O-])CCN(Cc2cccc(C(=O)[O-])n2)CC1.[18F-].[Sc+3]
tracer uptake (mouse, kidney; intravenous, 1 h): 1.47 %ID/g

C=CC(=O)Nc1cc(Nc2nccc(-c3cn(C)c4ccccc34)n2)c(OC)cc1N(C)CCNC
recovery (storage stability; human dried blood spot; 10 d, -80 °C, LLOQ level): 92.7%

COC1C=COC2(C)Oc3c(C)c(O)c4c(c3C2=O)C2=NC3(CCN(CC(C)C)CC3)NC2=C(NC(=O)C(C)=CC=CC(C)C(O)C(C)C(O)C(C)C(OC(=O)Nc2cnccn2)C1C)C4=O (stereo not drawn)
elimination half-life (CD-1 mouse female, plasma; intravenous, 5 mg/kg): 4 h

For quick reference, copied from above:
CN(Cc1ccccc1)C(=O)CN1CCN(CC(=O)[O-])CCN(CC(=O)N(C)Cc2ccccc2)CC1.[18F-].[Sc+3]
tracer uptake (mouse, stomach; intravenous, 1 h): 0.06 %ID/g

CCn1c(=O)c(-c2cc(NC(=O)Nc3ccccc3)c(F)cc2Br)cc2cnc(N)cc21
mid-term stability accuracy (human plasma; 150 ng/mL, 1 weeks, 4 °C, low QC): -1.73%

CCc1cnc(NC(=O)c2cc(S(=O)(=O)N3CCOCC3)ccc2N(C)C2CCCC2)s1
Amylase (mouse, serum; 10 mg/kg, 3 doses): 698 IU/L
